Assay results gathered from unrelated publications.
Protocols differ between the studies behind these lines.

Cc1cn([C@H]2O[C@@H](CO[P@@](=O)(N[C@@H](C)C(=O)OC(C)C)Oc3ccccc3)[C@H](O)[C@H]2F)c(=O)[nH]c1=O
patients with decreased platelets (item: grade 1/2; human; 50 mg): 17%

O=C1Nc2cc3[nH]nc(-c4ccncc4)c3cc2CN1Cc1ccccc1
patients with vitreous floaters (CTCAE v4.03; human, relapsed or refractory advanced solid tumours; intravenous, 7.2 mg/kg): 0%

CN(C)C(=O)c1cc2cnc(Nc3ccc(N4CCNCC4)cn3)nc2n1C1CCCC1
patients with adverse event (item: Reproductive toxicity, AESI; human, HR+/HER2− advanced breast cancer; oral, dose not given, grade 4, CTCAE v4.03): 0%

Cn1cncc1-c1c(F)cncc1NC(=O)c1c(N)nn2cc(F)cnc12
patients grade ≥3 white cell decrease (human patients; oral, 220 mg once daily, 2 weeks on 1 week off): 0%

C=CC(=O)Nc1cc(Nc2nccc(Nc3cc(Cl)c(F)cc3C(C)(C)O)n2)c(OC)cc1N1CC[C@@H](N(C)C)C1
patients with decreased appetite (human patients; oral, 50 mg, treatment-emergent adverse events): 16.7%

COc1ncnn2ccc(-c3cnc4nc(C)n(Cc5nnc([C@@H](C)F)o5)c4c3)c12
patients with dysgeusia (human; oral, dose not given, grade 3): 0%

C[C@]1(O)C[C@@](N)(c2ccc(-c3nc4n(c3-c3ccccc3)COc3ccncc3-4)cc2)C1
patients with Hyperglycemia TEAE (human, advanced or metastatic solid tumours; intermittent, dose escalation total, any grade): 42.9%

C[C@@H]1OC(=O)NN=C1c1ccc(-c2ccc(F)cc2)c(C(F)(F)F)c1
patients with adverse event (phase I trial, item: non-cardiac chest pain all grades; human patients; 5 mg loading then 0.25 mg daily): 0%

COc1ccc(-c2c(-c3ccc(C#N)c(F)c3)nc(N3CCC(N)CC3)n(C)c2=O)cc1F
patients with serious TEAE (item: pulmonary hemorrhage; human patients; oral, 60 mg, dose expansion): 5%

A few entries again:
COc1ccc(-c2c(-c3ccc(C#N)c(F)c3)nc(N3CCC(N)CC3)n(C)c2=O)cc1F
patients with serious TEAE (item: pulmonary hemorrhage; human patients; oral, 60 mg, dose expansion): 5%
